Measured values collected from several papers.
Lines come from different studies, so protocols differ. “And” joins repeats or separate records; there may be more than shown. ± gives the spread as reported.
GLO1: Lactoylglutathione lyase (GLO1, Homo sapiens, UniProt Q04760)
UniProt Q04760, sequence (whole entry, looked up): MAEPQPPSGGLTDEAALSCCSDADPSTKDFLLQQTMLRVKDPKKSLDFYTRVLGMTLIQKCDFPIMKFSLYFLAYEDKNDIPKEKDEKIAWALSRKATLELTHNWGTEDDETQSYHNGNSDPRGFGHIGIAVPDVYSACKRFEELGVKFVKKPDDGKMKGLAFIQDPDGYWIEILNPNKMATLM
PSMB5: Proteasome Macropain subunit MB1 (PSMB5, Homo sapiens, UniProt P28074)
UniProt P28074, sequence (whole entry, looked up): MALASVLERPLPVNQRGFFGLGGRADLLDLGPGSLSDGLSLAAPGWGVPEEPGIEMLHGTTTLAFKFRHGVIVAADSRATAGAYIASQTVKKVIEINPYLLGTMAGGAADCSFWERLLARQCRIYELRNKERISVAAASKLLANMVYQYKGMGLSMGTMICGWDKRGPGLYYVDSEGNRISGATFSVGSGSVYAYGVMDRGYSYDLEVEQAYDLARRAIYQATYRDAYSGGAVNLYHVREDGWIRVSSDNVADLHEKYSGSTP
MAPK9: Mitogen-activated protein kinase 9 (MAPK9, Homo sapiens, UniProt P45984)
UniProt P45984, sequence (whole entry, looked up): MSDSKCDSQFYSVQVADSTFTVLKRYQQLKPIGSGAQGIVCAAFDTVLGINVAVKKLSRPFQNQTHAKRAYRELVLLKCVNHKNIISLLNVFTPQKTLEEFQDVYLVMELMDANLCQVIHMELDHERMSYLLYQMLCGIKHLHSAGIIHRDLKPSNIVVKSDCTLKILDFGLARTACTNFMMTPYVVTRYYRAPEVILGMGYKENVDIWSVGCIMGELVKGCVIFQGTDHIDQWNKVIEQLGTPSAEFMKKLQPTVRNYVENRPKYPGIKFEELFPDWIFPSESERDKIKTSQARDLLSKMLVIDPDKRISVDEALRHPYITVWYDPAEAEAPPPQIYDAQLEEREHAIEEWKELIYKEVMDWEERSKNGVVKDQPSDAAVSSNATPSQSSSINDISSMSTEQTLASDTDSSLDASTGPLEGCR
PDIA3: Protein disulfide-isomerase A3 (PDIA3, Homo sapiens, UniProt P30101)
UniProt P30101, sequence (whole entry, looked up): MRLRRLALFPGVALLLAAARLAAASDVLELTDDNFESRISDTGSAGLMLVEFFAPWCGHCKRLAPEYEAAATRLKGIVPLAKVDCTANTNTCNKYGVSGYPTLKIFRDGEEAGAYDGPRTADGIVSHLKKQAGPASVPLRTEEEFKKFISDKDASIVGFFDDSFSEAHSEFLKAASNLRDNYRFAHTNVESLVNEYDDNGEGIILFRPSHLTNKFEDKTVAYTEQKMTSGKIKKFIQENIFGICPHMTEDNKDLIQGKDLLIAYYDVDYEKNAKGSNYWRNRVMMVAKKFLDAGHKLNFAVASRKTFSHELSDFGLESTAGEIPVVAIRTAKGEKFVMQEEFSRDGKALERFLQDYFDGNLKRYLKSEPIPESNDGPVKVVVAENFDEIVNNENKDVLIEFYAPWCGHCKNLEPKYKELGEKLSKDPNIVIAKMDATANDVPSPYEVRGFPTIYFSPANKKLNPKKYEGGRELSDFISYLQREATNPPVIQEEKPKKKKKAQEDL
SLC7A5: Large neutral amino acids transporter small subunit 1 (SLC7A5, Homo sapiens, UniProt Q01650)
UniProt Q01650, sequence (whole entry, looked up): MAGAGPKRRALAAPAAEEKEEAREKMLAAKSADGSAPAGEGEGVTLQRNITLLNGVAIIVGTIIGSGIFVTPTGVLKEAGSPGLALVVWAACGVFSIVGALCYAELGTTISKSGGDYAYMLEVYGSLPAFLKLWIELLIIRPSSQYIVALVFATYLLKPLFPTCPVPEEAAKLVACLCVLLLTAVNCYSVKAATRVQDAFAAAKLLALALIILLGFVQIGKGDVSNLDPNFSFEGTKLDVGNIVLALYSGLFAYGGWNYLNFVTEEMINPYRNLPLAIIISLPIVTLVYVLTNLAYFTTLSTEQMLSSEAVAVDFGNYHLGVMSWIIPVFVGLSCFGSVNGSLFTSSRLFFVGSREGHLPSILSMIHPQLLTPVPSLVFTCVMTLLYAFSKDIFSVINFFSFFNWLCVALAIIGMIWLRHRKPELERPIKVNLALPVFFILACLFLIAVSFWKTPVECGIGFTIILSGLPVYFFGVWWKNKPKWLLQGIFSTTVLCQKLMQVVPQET
UniProt Q9BV86, sequence (whole entry, looked up): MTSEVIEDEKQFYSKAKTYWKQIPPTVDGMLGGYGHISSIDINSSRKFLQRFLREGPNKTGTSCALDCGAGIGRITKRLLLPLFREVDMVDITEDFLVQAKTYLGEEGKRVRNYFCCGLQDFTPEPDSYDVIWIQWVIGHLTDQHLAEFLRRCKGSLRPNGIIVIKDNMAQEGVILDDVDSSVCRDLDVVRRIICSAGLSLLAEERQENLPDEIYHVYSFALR
UniProt Q923J1, sequence (whole entry, looked up): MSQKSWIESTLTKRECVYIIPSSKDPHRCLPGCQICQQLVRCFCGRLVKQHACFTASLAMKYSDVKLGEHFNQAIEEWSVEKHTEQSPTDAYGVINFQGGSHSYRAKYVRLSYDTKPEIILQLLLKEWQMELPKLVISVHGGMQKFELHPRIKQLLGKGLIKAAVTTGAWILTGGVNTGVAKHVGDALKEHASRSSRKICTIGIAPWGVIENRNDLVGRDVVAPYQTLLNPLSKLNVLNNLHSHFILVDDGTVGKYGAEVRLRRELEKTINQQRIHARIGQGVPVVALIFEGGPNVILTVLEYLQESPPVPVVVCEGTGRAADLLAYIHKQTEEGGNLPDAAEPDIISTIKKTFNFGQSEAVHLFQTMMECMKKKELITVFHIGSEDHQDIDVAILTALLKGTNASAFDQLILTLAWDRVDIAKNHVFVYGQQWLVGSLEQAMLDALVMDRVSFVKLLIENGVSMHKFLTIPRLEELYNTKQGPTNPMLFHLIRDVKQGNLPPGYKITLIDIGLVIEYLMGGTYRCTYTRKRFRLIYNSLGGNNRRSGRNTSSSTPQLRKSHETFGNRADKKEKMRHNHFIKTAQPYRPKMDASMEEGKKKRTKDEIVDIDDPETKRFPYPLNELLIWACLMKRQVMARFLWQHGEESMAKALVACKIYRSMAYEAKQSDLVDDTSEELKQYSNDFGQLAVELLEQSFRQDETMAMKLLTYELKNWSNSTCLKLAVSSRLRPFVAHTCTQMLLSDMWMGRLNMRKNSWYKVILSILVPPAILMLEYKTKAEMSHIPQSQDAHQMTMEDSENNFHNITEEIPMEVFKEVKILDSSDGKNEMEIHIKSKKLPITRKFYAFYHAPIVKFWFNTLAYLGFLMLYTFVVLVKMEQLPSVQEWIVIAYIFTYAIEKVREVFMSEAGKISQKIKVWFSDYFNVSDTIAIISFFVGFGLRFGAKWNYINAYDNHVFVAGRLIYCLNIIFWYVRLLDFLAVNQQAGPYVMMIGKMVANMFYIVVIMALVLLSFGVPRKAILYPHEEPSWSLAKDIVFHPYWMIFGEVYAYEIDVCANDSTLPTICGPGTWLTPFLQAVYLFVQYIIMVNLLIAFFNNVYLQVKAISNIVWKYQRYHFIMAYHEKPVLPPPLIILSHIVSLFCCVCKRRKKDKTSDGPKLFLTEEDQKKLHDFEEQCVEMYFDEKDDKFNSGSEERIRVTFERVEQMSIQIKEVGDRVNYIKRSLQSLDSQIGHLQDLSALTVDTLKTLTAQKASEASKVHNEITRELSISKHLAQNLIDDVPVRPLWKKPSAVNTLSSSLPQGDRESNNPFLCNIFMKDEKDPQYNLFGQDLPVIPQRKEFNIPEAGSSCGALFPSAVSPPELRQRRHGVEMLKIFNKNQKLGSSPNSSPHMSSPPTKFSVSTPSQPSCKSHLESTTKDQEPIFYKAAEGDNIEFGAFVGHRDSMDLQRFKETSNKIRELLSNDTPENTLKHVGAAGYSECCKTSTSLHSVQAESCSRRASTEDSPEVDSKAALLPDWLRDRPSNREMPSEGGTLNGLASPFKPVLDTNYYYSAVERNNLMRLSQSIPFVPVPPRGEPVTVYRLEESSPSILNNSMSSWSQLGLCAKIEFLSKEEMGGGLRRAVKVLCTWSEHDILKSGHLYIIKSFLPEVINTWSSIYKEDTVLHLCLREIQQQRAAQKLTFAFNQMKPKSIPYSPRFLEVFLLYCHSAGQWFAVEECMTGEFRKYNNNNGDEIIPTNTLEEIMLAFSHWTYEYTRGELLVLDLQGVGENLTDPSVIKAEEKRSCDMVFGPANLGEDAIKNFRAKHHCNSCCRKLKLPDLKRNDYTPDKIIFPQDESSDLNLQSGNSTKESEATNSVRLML
UniProt O15294, sequence (whole entry, looked up): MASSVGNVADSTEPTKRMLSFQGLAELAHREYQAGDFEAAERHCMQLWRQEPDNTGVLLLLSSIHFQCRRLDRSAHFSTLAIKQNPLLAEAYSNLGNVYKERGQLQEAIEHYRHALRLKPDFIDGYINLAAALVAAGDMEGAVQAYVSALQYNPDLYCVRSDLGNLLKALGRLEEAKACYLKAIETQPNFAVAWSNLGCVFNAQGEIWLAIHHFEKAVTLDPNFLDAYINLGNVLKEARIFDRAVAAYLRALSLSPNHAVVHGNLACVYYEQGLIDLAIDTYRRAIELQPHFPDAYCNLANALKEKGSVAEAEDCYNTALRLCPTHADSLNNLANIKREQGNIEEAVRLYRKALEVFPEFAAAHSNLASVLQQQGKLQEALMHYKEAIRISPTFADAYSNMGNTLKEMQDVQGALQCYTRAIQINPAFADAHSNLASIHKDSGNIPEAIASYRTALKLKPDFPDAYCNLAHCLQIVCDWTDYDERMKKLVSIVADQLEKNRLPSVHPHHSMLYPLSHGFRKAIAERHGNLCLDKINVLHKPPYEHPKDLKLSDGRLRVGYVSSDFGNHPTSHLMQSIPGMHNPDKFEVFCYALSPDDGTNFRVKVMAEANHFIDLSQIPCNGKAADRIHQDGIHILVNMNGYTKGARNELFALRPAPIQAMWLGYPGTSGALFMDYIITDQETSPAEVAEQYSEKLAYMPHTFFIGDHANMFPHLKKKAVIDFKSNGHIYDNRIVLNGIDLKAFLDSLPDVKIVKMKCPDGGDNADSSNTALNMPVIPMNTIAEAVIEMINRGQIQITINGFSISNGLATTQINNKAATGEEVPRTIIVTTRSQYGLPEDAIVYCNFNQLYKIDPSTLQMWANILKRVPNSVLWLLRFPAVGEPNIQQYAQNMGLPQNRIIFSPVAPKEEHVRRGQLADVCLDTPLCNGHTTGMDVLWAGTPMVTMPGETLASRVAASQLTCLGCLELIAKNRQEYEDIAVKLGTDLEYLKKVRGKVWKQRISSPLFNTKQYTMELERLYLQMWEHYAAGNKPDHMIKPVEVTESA

SMILES	target	assay	test system	setting	how to read	IC50
Cn1cnnc1Sc1c2c(c(C#N)c3nc4ccccc4n13)CCCC2	ERO1-like protein beta (ERO1B, Homo sapiens, UniProt Q86YB8)	enzyme activity, inhibitor				7.2 µM
O=C(Nc1ccn(Cc2ccc(O)cc2C(F)(F)F)n1)c1c(F)cccc1F	Protein orai-3, with STIM1 (ORAI3, Homo sapiens, UniProt Q9BRQ5)	STIM1-mediated current, inhibitor, whole-cell patch clamp	HEK293 cells	estimated from single concentrations		~3.8 µM
N=C(N)c1ccc(/N=N/Nc2ccc(C(=N)N)cc2)cc1	DNA substrate (25 bp)	DNA binding, ethidium bromide displacement				1.6 ± 0.1 µM
NC1(Cc2ccc(Cl)cc2)CCN(c2ncnc3[nH]ccc23)CC1	Transient receptor potential cation channel subfamily M member 7 (Trpm7, Mus musculus, UniProt Q923J1)	calcium signal				1.42 µM
CCOc1cncc(-c2ccc(NC(=O)C3(c4ccnc(NS(=O)(=O)C5CC5)n4)CCOCC3)nc2)n1	Ctps1 (Mus musculus, UniProt P70698)	enzyme activity, inhibitor, mass spectrometry				0.0095 µM
O=C(O)c1ccc(/N=N/c2cc3ccccc3c(C(=O)O)c2O)cc1	GLO1	enzyme activity, inhibitor				32.1 µM
C=CC1(C)CCC2C(=CC3OC(=O)C4(C)C3C23CCC4(O)OC3)C1 (stereo not shown)	Saccharomyces cerevisiae alpha-glucosidase	enzyme activity, inhibitor		together with: pNPG substrate		612.03 ± 0.39 µg/mL
COc1cc2oc(-c3ccc(O)cc3O)cc2c(OC)c1CC=C(C)C	Prothrombin (F2, Homo sapiens, UniProt P00734)	enzyme activity, inhibitor, fluorescence		with preincubation		> 100 µM
N=C(N)NCCCC(N)C(=O)NCC(=O)NC(CCCNC(=N)NCCSCC1OC(n2cnc3c(N)ncnc32)C(O)C1O)C(N)=O (stereo not shown)	N-terminal Xaa-Pro-Lys N-methyltransferase 1 (Homo sapiens, UniProt Q9BV86)	enzyme activity, inhibitor, fluorescence				> 100 µM
COC(OC)c1ccc(-c2ccc(O)cc2)c(C(=C2C=CC(=O)C=C2)c2ccc(O)cc2)c1C#Cc1ccc(O)cc1	3',5'-cyclic-AMP phosphodiesterase 4D (PDE4D, Homo sapiens, UniProt Q08499)	enzyme activity, inhibitor, fluorescence				> 10 µM
Cc1[nH]nc2c1N=C(c1ccccc1Cl)c1cnc(N3CCOCC3)cc1N2	Vascular endothelial growth factor receptor 3 (FLT4, Homo sapiens, UniProt P35916)	enzyme activity, inhibitor				0.00093 µM
C=C(NC(=O)C(=C)NC(=O)c1csc(C2=NC3c4csc(n4)C4NC(=O)c5csc(n5)C(C(C)(O)C(C)O)NC(=O)C5CSC(=N5)C(=CC)NC(=O)C(C(C)O)NC(=O)c5csc(n5)C3(CC2)NC(=O)C(=CC)NC(=O)C(=C)NC(=O)C(C)NC(=O)C(C(C)CC)NC2C=Cc3c(C(C)O)cc(nc3C2O)C(=O)OC4C)n1)C(N)=O (stereo not shown)	PSMB5	chymotrypsin-like activity, inhibitor	purified 20S proteasome	15 min preincubation, 37 °C, together with: Suc-Leu-Leu-Val-Tyr-AMC substrate		0.25 ± 0.02 µM
CC(C)C[C@H](NC(=O)[C@H](CC(N)=O)NC(=O)[C@H](CC(C)C)NC(=O)[C@@H](NC(=O)[C@@H](NC(=O)[C@@H]1CCCN1C(=O)[C@H](CCCNC(=N)N)NC(=O)[C@H](CCCCN)NC(=O)[C@@H]1CCCN1)[C@@H](C)O)[C@@H](C)O)C(=O)N[C@@H](Cc1ccccc1)C(=O)NCCCCCC(=O)N[C@@H](CCCNC(=N)N)C(=O)N[C@@H](CCCNC(=N)N)C(=O)N[C@@H](CCCNC(=N)N)C(=O)N[C@@H](CCC(N)=O)C(=O)N[C@@H](CCCNC(=N)N)C(=O)N[C@@H](CCCNC(=N)N)C(=O)N[C@@H](CCCCN)C(=O)N[C@@H](CCCCN)C(=O)N[C@@H](CCCNC(=N)N)C(=O)NCC(N)=O	MAPK9	enzyme activity, inhibitor				0.092 µM and ~0.09 µM
C[C@@H](O)[C@@H]1NC(=O)[C@H](Cc2ccccc2)NC(=O)[C@H]([C@@H](C)O)NC(=O)[C@H](CCCCN)NC(=O)[C@@H](Cc2c[nH]c3ccccc23)NC(=O)[C@H](Cc2ccccc2)NC(=O)[C@H](Cc2ccccc2)NC(=O)[C@H](CC(N)=O)NC(=O)[C@H](NC(=O)[C@@H](N)Cc2ccc(Cl)cc2)CSSC[C@@H](C(=O)N[C@@H](Cc2ccc3ccccc3c2)C(N)=O)NC1=O	Somatostatin receptor type 2 (SSTR2, Homo sapiens, UniProt P30874)	ligand displacement, radioligand		pH 8.2, cell membranes		0.0067 µM
C=C(NC(=O)C(=C)NC(=O)c1csc(C2=NC3c4csc(n4)C4NC(=O)c5csc(n5)C(C(C)(O)C(C)O)NC(=O)C5CSC(=N5)C(=CC)NC(=O)C(C(C)O)NC(=O)c5csc(n5)C3(CC2)NC(=O)C(C)NC(=O)C(=C)NC(=O)C(Cc2ccc(O)cc2)NC(=O)C(C(C)CC)NC2C=Cc3c(C(C)O)cc(nc3C2O)C(=O)OC4C)n1)C(N)=O (stereo not shown)	PSMB5	chymotrypsin-like activity, inhibitor	purified human 20S proteasome	37 °C, 15 min preincubation, together with: Suc-Leu-Leu-Val-Tyr-AMC		> 0.92 µM
c1cc2cc(c1)Cn1cc(nn1)Cn1nc(-c3ccc(N4CCNCC4)nc3)c3cnc(nc31)NCc1cn(nn1)C2	Receptor-type tyrosine-protein kinase FLT3 (FLT3, Homo sapiens, UniProt P36888)	enzyme activity, inhibitor, radiometric				53.5 µM
COc1ccc2c(c1)CC[C@H]1[C@@H]3[C@H](OCCCO)CC(=O)[C@@]3(C)CC[C@H]21	17-beta-hydroxysteroid dehydrogenase type 1 (HSD17B1, Homo sapiens, UniProt P14061)	enzyme activity, inhibitor, radiometric				2.7 µM
CN(C)C(=O)C1CN1S(=O)(=O)c1ccc(N(C)C)c2ccccc12 (stereo not shown)	PDIA3	enzyme activity, inhibitor, absorbance		pH 7.6		15.2 µM
Cc1cc(Nc2cc(CN(C)C)cc(NC(=O)c3cccc(Nc4ccnc5ccccc45)c3)c2)nc(N)n1	DNA polymerase eta (POLH, Homo sapiens, UniProt Q9Y253)	nucleotide incorporation, inhibitor		together with: 50 µM dNTP		7.5 µM
C=C(NC(=O)C(=C)NC(=O)c1csc(C2=NC3c4csc(n4)C4NC(=O)c5csc(n5)C(C(C)(O)C(C)O)NC(=O)C5CSC(=N5)C(=CC)NC(=O)C(C(C)O)NC(=O)c5csc(n5)C3(CC2)NC(=O)C(C(C)CC)NC(=O)C(=C)NC(=O)C(C)NC(=O)C(C(C)CC)NC2C=Cc3c(C(C)O)cc(nc3C2O)C(=O)OC4C)n1)C(N)=O (stereo not shown)	PSMB5	chymotrypsin-like activity, inhibitor	purified 20S proteasome	15 min preincubation, 37 °C, together with: Suc-Leu-Leu-Val-Tyr-AMC substrate		0.27 ± 0.03 µM

SMILES	target	assay	test system	setting	how to read	IC50
Oc1ccc(/N=N/c2ccccc2)c2cccnc12	GLO1	enzyme activity, inhibitor				8.81 µM
N#Cc1cnc2cc(OCC3CCNCC3)c(F)cc2c1Nc1cc(F)c(OCc2cccc(Cl)n2)cc1Cl	Serine/threonine-protein kinase 3 (STK3, Homo sapiens, UniProt Q13188)	enzyme activity, inhibitor				0.214 µM
O=c1ccn([C@@H]2O[C@H](COP(=O)(O)CP(=O)(O)O)[C@@H](O)[C@H]2O)c(=O)[nH]1	UDP-N-acetylglucosamine--peptide N-acetylglucosaminyltransferase 110 kDa subunit (OGT, Homo sapiens, UniProt O15294)	enzyme activity, inhibitor, radiometric				9 µM
Cc1[nH]c2ccccc2c1CCNC(=O)c1ccccc1F	ACTR2/ACTR3 (Bos taurus, UniProt A7MB62+P61157)	actin polymerization, inhibitor, pyrenyl-actin		3 µM actin, 30% pyrenyl, together with: 5 nM Arp2/3 complex, 1 µM N-WASp-VCA		17 µM
O=C(COc1ccc2ccccc2c1)N[C@@H](Cc1cn(CCNC(=O)c2ccc(S[C@@H]3O[C@H](CO)[C@H](O)[C@H](O)[C@H]3O)cc2)nn1)C(=O)NCCO	PA-I galactophilic lectin (lecA, Pseudomonas aeruginosa, UniProt Q05097)	ligand displacement, FP				67.7 µM
CC(C)OC(=O)C(CS)N1C(=O)c2ccc(N(C)C)cc2C1=O (stereo not shown)	Metallo-beta-lactamase type 2 (blaNDM-1, Klebsiella pneumoniae, UniProt C7C422)	enzyme activity, inhibitor		pH 7		10.3 µM
N#Cc1c(N)nc(N)nc1OCC1CCCCC1	Serine/threonine-protein kinase mTOR (MTOR, Homo sapiens, UniProt P42345)	kinase activity, inhibitor, TR-FRET		together with: ATP 10 µM	up to highest concentration	> 20 µM
O=C1c2oc3cc(O)c(O)cc3c2C(=O)c2oc3cc(O)c(O)cc3c21	Cytochrome P450 2C8 (CYP2C8, Homo sapiens, UniProt P10632)	enzyme activity, inhibitor	human, liver microsomes	1 h, pH 7.4		24.6 µM
Cc1cccc2c(=O)c3c(O)cc(OCC(=O)O)cc3oc12	Cyclin-dependent kinase 9 (CDK9, Homo sapiens, UniProt P50750)	enzyme activity, inhibitor, ATP luminescence				6.6 µM
COc1ncnc(C2CC2)c1-c1ncc2c(n1)n(Cc1ccc(-c3nc(C(F)(F)F)cn3C)cc1)c(=N)n2CC(F)(F)F	5-hydroxytryptamine receptor 2B (HTR2B, Homo sapiens, UniProt P41595)	cell-based				1.8 µM
CN(C)C(=O)C1CN1S(=O)(=O)c1cccc2cc(N(C)C)ccc12 (stereo not shown)	PDIA3	enzyme activity, inhibitor, absorbance		pH 7.6		4.8 µM
N[C@@H](Cc1c[nH]c2ccc(OCc3ccc(-c4ccco4)cc3)cc12)C(=O)O	SLC7A5	transporter uptake, inhibitor, radiometric				31 µM
O=C(Nc1cccc(C(=O)Nc2ccc(S(=O)(=O)O)c3cc(S(=O)(=O)O)cc(S(=O)(=O)O)c23)c1)Nc1cccc(C(=O)Nc2ccc(S(=O)(=O)O)c3cc(S(=O)(=O)O)cc(S(=O)(=O)O)c23)c1	Single-stranded DNA-binding protein (ssb, Escherichia coli, UniProt P0AGE0)	DNA binding, fluorescence polarization		together with: Cy5-dT15 DNA 5 nM		1.7 ± 0.2 µM
N[C@@H](Cc1c[nH]c2ccc(OCc3cccc(-c4ccccc4)c3)cc12)C(=O)O	SLC7A5	transporter uptake, inhibitor, radiometric				24 µM
Cn1c2c(c3ccc(Cl)c(Cl)c31)C(C#N)C1(CCNCC1)NC2=O (racemic)	Ribosomal protein S6 kinase beta-1 (RPS6KB1, Homo sapiens, UniProt P23443)	enzyme activity, inhibitor				0.2 µM
Cc1nnc(-c2cccc(Nc3ncnn4ccc(CN5CCC(N)CC5)c34)c2)s1	AP2-associated protein kinase 1 (AAK1, Homo sapiens, UniProt Q2M2I8)	enzyme activity, inhibitor				0.21 µM
Cc1ccc(CNC(=O)C(CCc2ccccc2)NC(=O)C(NC(=O)c2ccc(OCc3ccc(C(C)(C)C)cc3)cc2)C(C)O)cc1 (stereo not shown)	Proteasome subunit beta type-3/PSMB7 (Homo sapiens, UniProt P49720+Q99436)	inhibitor				> 100 µM
Cc1cc(NC(=O)c2cccc(-n3cc(NC(=O)Nc4ccccc4Cl)cn3)c2)ccn1	MAPK9	enzyme activity, inhibitor				0.486 µM
N[C@@H](Cc1c[nH]c2ccc(OCc3cccc(-c4ccco4)c3)cc12)C(=O)O	SLC7A5	transporter uptake, inhibitor, radiometric				20 µM
CCCCCCCCCCCCCC(=S)NCCCC[C@H](NC(=O)[C@@H]1CCCN1)C(=O)N[C@@H](CCCCN)C(=O)N[C@H](C(=O)NCC(=O)O)[C@@H](C)O	NAD-dependent protein deacetylase sirtuin-2 (SIRT2, Homo sapiens, UniProt Q8IXJ6)					1.9 µM
